Published values from different studies.
± gives the spread as reported.
UniProt Q15759, sequence (whole entry, looked up): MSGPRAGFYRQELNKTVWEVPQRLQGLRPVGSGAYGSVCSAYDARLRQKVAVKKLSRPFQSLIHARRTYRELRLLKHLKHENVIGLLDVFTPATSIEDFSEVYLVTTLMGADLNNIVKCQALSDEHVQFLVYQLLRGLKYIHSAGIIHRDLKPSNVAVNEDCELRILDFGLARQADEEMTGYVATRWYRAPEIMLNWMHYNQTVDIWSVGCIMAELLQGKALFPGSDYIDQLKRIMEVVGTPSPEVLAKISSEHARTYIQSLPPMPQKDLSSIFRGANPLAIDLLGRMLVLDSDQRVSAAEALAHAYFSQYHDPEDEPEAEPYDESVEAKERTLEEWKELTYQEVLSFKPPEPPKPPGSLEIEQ

N=C(N)NC(=N)Nc1cccc(Cl)c1
IC50 (Plasmodium falciparum; HB3): 7.94 µM

Cn1cncc1-c1c(F)cncc1NC(=O)c1c(N)nn2cc(F)cnc12
platelet count decreased DLT (human patients; oral, up to 40 mg once daily, 21 days): 0%

O=C(O)CCCOc1ccc(F)cc1-c1cc(-c2ccccc2C(F)(F)F)n(-c2ccccc2)n1
relative organ weight (female Crl:CD(SD) rats, thymus; intravenous, 25 µg/kg, 1 d): 0.25 ± 0.04 g%

CCCCCCCC(=O)N[C@@H](CCCCN)C(=O)N[C@@H](CCCCN)C(=O)N[C@@H](C)C(=O)N[C@@H](CC(C)C)C(=O)N[C@@H](CCCCN)C(=O)N[C@@H](CC(C)C)C(=O)N[C@@H](C)C(=O)N[C@@H](CCCCN)C(=O)N[C@@H](CCCCN)C(=O)N1CCC[C@H]1C(=O)N[C@@H](CC(C)C)C(=O)N[C@@H](CCCCN)C(=O)N[C@@H](CC(C)C)C(=O)N[C@@H](CC(C)C)C(=O)N[C@@H](CCCCN)C(N)=O
AUC(0-t) (ICR mouse, female, whole blood; intravenous bolus, 3 mg/kg): 270 ± 31 ng·h/mL

CCOc1cc(Oc2ccc(C(F)(F)F)cc2Cl)ccc1[N+](=O)[O-]
body weight gain (rat, female; 250 mg/kg, 4 days): 24.2%

CCCCCCCCCCCCCCCC(=O)N[C@@H](CCC(=O)NCCCC[C@H](NC(=O)[C@H](CC(=O)O)NC(=O)[C@H](CO)NC(=O)[C@@H](NC(=O)[C@H](Cc1ccccc1)NC(=O)[C@@H](NC(=O)CNC(=O)[C@H](CCC(N)=O)NC(=O)[C@H](CO)NC(=O)[C@@H](N)Cc1c[nH]cn1)[C@@H](C)O)[C@@H](C)O)C(=O)N[C@@H](CO)C(=O)N[C@@H](CCC(=O)O)C(=O)N[C@@H](Cc1ccc(O)cc1)C(=O)N[C@@H](CC(C)C)C(=O)N[C@@H](CC(=O)O)C(=O)N[C@@H](CO)C(=O)N[C@@H](CCC(=O)O)C(=O)N[C@@H](CCCNC(=N)N)C(=O)N[C@@H](C)C(=O)N[C@@H](CCCNC(=N)N)C(=O)N[C@@H](CC(=O)O)C(=O)N[C@@H](Cc1ccccc1)C(=O)N[C@H](C(=O)N[C@@H](C)C(=O)N[C@@H](Cc1c[nH]c2ccccc12)C(=O)N[C@@H](CC(C)C)C(=O)N[C@@H](CCC(=O)O)C(=O)N[C@@H](C)C(=O)NCC(=O)NCC(=O)O)C(C)C)C(=O)O
treatment-related adverse events (item: Nausea; humans CrCl 20 to 30 mL/min; subcutaneous, 100 µg single dose): 37.5%

O=C(Nc1ccccc1)C1CCN(C(=O)Oc2cccnc2)CC1
adverse event Palpitations (healthy women; oral, 100 mg, 9 days): 0%

C[C@@H](NC(=O)N1C(=O)[C@H](Cc2ccnc(N)c2)[C@H]1C(=O)O)C1CCCCC1
incidence of serious AEs (healthy adult Chinese volunteers; continuous intravenous infusion, 0.3 mg/kg/h, 5-day infusion, CTCAE 5.0 grading): 0%

Clc1cc(Cl)c(-c2ccc(Cl)c(Cl)c2Cl)cc1Cl
log K(PDMS-water) (fresh water; 20 °C): 6.41 ± 0.06

COc1ncccc1-c1cnn2ccc(N3CCN(C(=O)OC(C)C)CC3)nc12
drug concentration (rat, thermal hyperalgesia model, plasma; oral, 0.3 mg/kg, 180 min): 37 nM

OCc1ncc2n1-c1ccc(Cl)cc1C(c1ccccc1F)=NC2
AUClast increase (CYP3A4 (human); human, plasma; oral, 2 mg midazolam, together with: encorafenib at steady state; relative to: Day -7 probe alone): 5%

c1ccc2cc3c(cc2c1)-c1cccc2cccc-3c12
literature range factor (PDMS-water partitioning; PAH compilation; relative to: maximum over minimum K): 10

CC(C)(C)c1cc(-n2nc3ccccc3n2)c(O)c(C(C)(C)C)c1
daily dermal exposure dose (human aged 21-60 years; concentration not given, foundation, 95th percentile): 3.73 ng/kg/day

Cn1cc(-c2nc(N[C@@H]3CCCC[C@@H]3N)c(F)c3c2C(=O)NC3)cn1
hemorrhagic adverse events (item: Mouth haemorrhage; patients with relapsed or refractory AML; oral, 80 mg twice daily): 17%

Nc1nc2cc(-c3ccc4ncc(C(=O)N5CCOCC5)n4c3)ccc2o1
patients with adverse events (item: Hyperglycemia, any cause, grade ≥3; patients with advanced solid tumours; dose not given): 7%

CN[C@@H](C)C(=O)N[C@H]1CN(S(=O)(=O)c2cccc(S(=O)(=O)N3CC[C@H]4CC[C@@H](C(=O)NC(c5ccccc5)c5ccccc5)N4C(=O)[C@@H](NC(=O)[C@H](C)NC)C3)c2)CC[C@H]2CC[C@@H](C(=O)NC(c3ccccc3)c3ccccc3)N2C1=O
treatment-related pruritus incidence (patients with advanced solid tumours; 20 mg, phase I monotherapy): 20%

c1ccc2c(c1)-c1cccc3c1c-2cc1ccccc13
log K(PDMS-water) (fresh water; 12 (unit not given), 20 °C, S30-1 sampler, 30 µm): 5.18 ± 0.05

CC/C(=C(\c1ccccc1)c1ccc(OCCN(C)C)cc1)c1ccccc1
AUC(0-t) (CD-1 mouse, male, plasma; intraperitoneal, 3 mg/kg): 227 ng·h/mL

CN1CCN(c2ccc(Nc3nccc(-c4ccnc(NCc5ccccc5)c4)n3)cc2C(F)(F)F)CC1
toxicity (Danio rerio embryos; 5 µM, 5 d): 63 ± 23%

C[C@]1(CO)Cc2ncn(-c3ccc(C#N)c(Cl)c3)c2C(=O)O1
AUC(0-inf) (healthy Japanese adults, plasma; 3 mg single dose): 1080 nmol·h/L

Cc1ccc(F)c2cc(C(=O)N[C@@H]3CCC[C@H](N4CC[C@H](N(C)S(C)(=O)=O)C4)C3)[nH]c12
plasma concentration (CD1 mouse, plasma; oral, 30 mg/kg, 10 h): 17.9 ng/mL

COc1cccc2c1CCCC2CCCN1CCN(C2CCCCC2)CC1 (centres unmarked)
elimination rate constant (CD-1 mouse, male, plasma; intraperitoneal, 3 mg/kg): 6.85e-05 s⁻¹

CC1(C)[C@H](C(=O)OCc2cccc(Oc3ccccc3)c2)[C@@H]1C=C(Cl)Cl
enzyme contribution to clearance (item: CYP2C9; human, age 1 year, recombinant human CYP2C9; 0.1 µM): 2.32%

OC(c1cc(C(F)(F)F)nc2c(C(F)(F)F)cccc12)C1CCCCN1 (centres unmarked)
IC50 (Plasmodium falciparum; cell growth; HB3): 0.01 µM

[O-][S+]1CCc2nc(N3CCC(c4ncc(Cl)cn4)CC3)nc(NC3(CO)CCC3)c21 (centres unmarked)
adverse event incidence (item: Headache; healthy male humans; multiple doses, all groups): 31.3%

C[C@H]1CN(c2n[nH]c3nc(N[C@H]4CC[C@H](NS(=O)(=O)CCC(F)(F)F)CC4)ncc23)CCO1
Hill slope (Mitogen-activated protein kinase 11 (MAPK11, Homo sapiens, UniProt Q15759); competitor, Kinobeads competition; HEK293, K562, placenta extract): 0.63

N=C(N)NCCC[C@@H](NC(=O)[C@@H](N)Cc1ccccc1)C(=O)N[C@@H](Cc1ccccc1)C(=O)N[C@@H](CCCCN)C(N)=O
mean fraction excreted in urine (LC-MS; human; 15 mg, 11.83 h): 8.14%

O.O.O.O.O.O.[Cl-].[Cl-].[Co+2]
reticulocytes (Crl:CD(SD) rat female, blood; oral, 7.44 mg Co/kg/day, 90 days; relative to: red blood cells): 15.4%

COc1cc2c(Oc3ccc4[nH]c(C)cc4c3F)ccnc2cc1OCC1(N)CC1
grade 1 or 2 Epistaxis (paediatric recurrent refractory sarcoma; 8 mg): 0%

CC(C)(O)c1cc(Nc2cc(Oc3cn(C4CC4)nc3C3CCOCC3)ccn2)ccn1
treatment-emergent adverse events (item: Diarrhea; patients with advanced cancer; oral, dose not given): 0%

Clc1ccc(Cl)c(-c2cc(Cl)c(Cl)cc2Cl)c1
literature range factor (polyethylene-water partitioning; PCB compilation; relative to: maximum over minimum K): 2

CCc1ccc(CC/C=C/c2ccc3c(c2)C(=O)CC3)cc1
Erythrocyte percentage (Sprague-Dawley rat, female; oral, 30 mg/kg/day, 14 days): 11%

CCS(=O)(=O)Nc1ccc(Oc2ccc(F)cc2F)c(-c2cn(C)c(=O)c3[nH]ccc23)c1
treatment-emergent adverse events (fungal infection leading to discontinuation; human, relapsed/refractory AML; oral, dose not given): 0%

CC(C)[C@@H]1NC(=O)CNC(=O)[C@H](CC(N)=O)NC(=O)[C@H](CCCNC(=N)N)NC(=O)[C@H](Cc2ccc(O)cc2)NC(=O)[C@H](C(C)C)NC(=O)[C@@H](NC(=O)[C@@H](NC(=O)[C@H](CC(N)=O)NC(=O)[C@H](Cc2c[nH]c3ccccc23)NC(=O)[C@H](C)NC(=O)[C@H](Cc2ccccc2)NC(=O)CN)C(C)C)CSSC[C@@H](C(=O)N[C@@H](Cc2cnc[nH]2)C(=O)N[C@@H](CCCNC(=N)N)C(=O)N[C@@H](CCCNC(=N)N)C(=O)N[C@@H](C)C(=O)N[C@@H](CC(N)=O)C(N)=O)NC(=O)[C@H](C(C)C)NC(=O)[C@H](CCCNC(=N)N)NC1=O
haematocrit (ICR mouse, blood; intramammary, 10 mg/kg, day 5, 3 d dosing): 40.9 ± 1.13%

CC(C)C[C@@H]1NC(=O)CNC(=O)[C@H](CC(N)=O)NC(=O)[C@H](CCCNC(=N)N)NC(=O)[C@H]([C@@H](C)O)NC(=O)[C@@H]2CSSC[C@@H]3NC(=O)[C@H]([C@@H](C)O)NC(=O)CNC(=O)CNC(=O)[C@H](C(C)C)NC(=O)[C@@H]4CSSC[C@H](NC(=O)[C@H]([C@@H](C)O)NC(=O)[C@H](CSSC[C@H](NC(=O)[C@H](C(C)C)NC(=O)[C@H](CCCCN)NC1=O)C(=O)NCC(=O)N[C@@H](CCC(=O)O)C(=O)N[C@@H]([C@@H](C)O)C(=O)N4)NC(=O)CNC(=O)[C@@H]1CCCN1C(=O)[C@H]([C@@H](C)O)NC(=O)[C@H](CC(N)=O)NC3=O)C(=O)N[C@@H](CO)C(=O)N[C@@H](Cc1c[nH]c3ccccc13)C(=O)N1CCC[C@H]1C(=O)N[C@@H](C(C)C)C(=O)N2
remaining peptide (HPLC; ammonium bicarbonate 0.1 M; 180 µM, 14 days, pH 9.0, 37 °C, deamidation stability): 0%

Repeated from above:
CCCCCCCC(=O)N[C@@H](CCCCN)C(=O)N[C@@H](CCCCN)C(=O)N[C@@H](C)C(=O)N[C@@H](CC(C)C)C(=O)N[C@@H](CCCCN)C(=O)N[C@@H](CC(C)C)C(=O)N[C@@H](C)C(=O)N[C@@H](CCCCN)C(=O)N[C@@H](CCCCN)C(=O)N1CCC[C@H]1C(=O)N[C@@H](CC(C)C)C(=O)N[C@@H](CCCCN)C(=O)N[C@@H](CC(C)C)C(=O)N[C@@H](CC(C)C)C(=O)N[C@@H](CCCCN)C(N)=O
AUC(0-t) (ICR mouse, female, whole blood; intravenous bolus, 3 mg/kg): 270 ± 31 ng·h/mL

O.O.O.O.O.O.[Cl-].[Cl-].[Co+2]
reticulocytes (Crl:CD(SD) rat female, blood; oral, 7.44 mg Co/kg/day, 90 days; relative to: red blood cells): 15.4%
